Assay results gathered from unrelated publications.
± marks the error that the study gave.

With N=C(N)NCCC[C@H](NC(=O)CON=C[C@H](F)[C@@H](O)[C@H](O)[C@H](O)CO)C(=O)NCC(=O)N[C@@H](CC(=O)O)C(=O)O [fluorine-18 labelled] the tissue uptake was 0.49 ± 0.1 %ID/g (nude mice U-87 MG tumour, spleen; intravenous, 0.5 h).
CCCC[C@H](NC(=O)CNC(=O)CNC(=O)CN1CCN(CC(=O)O)CCN(CC(=O)O)CC1)C(=O)N[C@H]1CC(=O)NCCCC[C@@H](C(N)=O)NC(=O)[C@H](Cc2c[nH]c3ccccc23)NC(=O)[C@H](CCCNC(=N)N)NC(=O)[C@@H](Cc2ccccc2)NC(=O)[C@H](Cc2c[nH]cn2)NC1=O [gallium-67 labelled] gave a tissue uptake of 0.34 ± 0.12 %ID/g (female C57 mice, B16/F1 melanoma, muscle; intravenous, 0.037 MBq, 2 h).
The tissue uptake of CCCC[C@H](NC(=O)CN1CCC(NC(=O)CN2CCN(CC(=O)O)CCN(CC(=O)O)CCN(CC(=O)O)CC2)CC1)C(=O)N[C@H]1CC(=O)NCCCC[C@@H](C(N)=O)NC(=O)[C@H](Cc2c[nH]c3ccccc23)NC(=O)[C@H](CCCNC(=N)N)NC(=O)[C@@H](Cc2ccccc2)NC(=O)[C@H](Cc2c[nH]cn2)NC1=O [gallium-68 labelled] is reported as 0.3 %ID/g (C57BL/6J mice male B16-F10 tumour, spleen; 2 h post injection, unblocked).
For N=C(N)NCCC[C@@H]1NC(=O)[C@H](CCCCNC(=O)CON=C[C@H](F)[C@@H](O)[C@H](O)[C@H](O)CO)NC(=O)[C@@H](Cc2ccc(O)cc2)NC(=O)[C@H](CC(=O)O)NC(=O)CNC1=O [fluorine-18 labelled], the tissue uptake was 1.32 ± 1.3 %ID/g (nude mice U-87 MG tumour, liver; intravenous, 0.5 h).
For CCCC[C@@H]1NC(=O)[C@@H](NC(=O)[C@H](CCC(=O)O)NC(=O)CNC(=O)CN2CCN(CC(=O)O)CCN(CC(=O)O)CCN(CC(=O)O)CC2)CCCCNC(=O)C[C@@H](C(N)=O)NC(=O)[C@H](C(C)C)NC(=O)[C@@H]2CCCN2C(=O)[C@H](CCCNC(=N)N)NC(=O)CNC(=O)[C@H](Cc2c[nH]c3ccccc23)NC(=O)[C@H](CCCNC(=N)N)NC(=O)[C@@H](Cc2ccccc2)NC(=O)[C@H](Cc2c[nH]cn2)NC(=O)[C@H](CCC(=O)O)NC1=O [gallium-67 labelled], the tissue uptake was 0.24 ± 0.08 %ID/g (C57 mice with B16/F1 melanoma, liver; intravenous, 24 h).
With O=C([O-])CN1CCN(CC(=O)[O-])CCN(CC(=O)NCCc2ccc3c(c2)C2C=CCC2C(c2cc4c(cc2Br)OCO4)N3)CCN(CC(=O)[O-])CC1.[111In+3] (stereo not shown) the tissue uptake was 0.6 ± 0.05 %ID/g (mice with Hec50 tumour xenograft, pituitary; 1 h).
With CC(C)[C@H](NC(=O)[C@@H]1CCCN1C(=O)[C@H](CCCNC(=N)N)NC(=O)[C@H](CS)NC(=O)[C@H](Cc1c[nH]c2ccccc12)NC(=O)[C@H](CCCNC(=N)N)NC(=O)[C@@H](Cc1ccccc1)NC(=O)[C@H](Cc1c[nH]cn1)NC(=O)[C@H](CCC(=O)O)NC(=O)[C@H](CS)NC(=O)[C@H](CS)NC(=O)[C@@H]1CC(=O)N[C@@H](CCCNC(=N)N)C(=O)NCC(=O)N[C@@H](CC(=O)O)C(=O)N[C@H](Cc2ccc(O)cc2)C(=O)N1)C(N)=O [technetium-99m labelled] the tissue uptake was 13.3 ± 1.68 %ID/g (female mice, B16/F1 melanoma, kidneys; intravenous, dose not given, 2 h, added: 10 µg NDP-MSH co-injected).
With O=C([O-])CN1CCN(CC(=O)O)CCN(CC(=O)[O-])CCN(CC(=O)NCC2CCC(C(=O)NC(Cc3ccc4ccccc4c3)C(=O)NCCCCC(NC(=O)NC(CCC(=O)O)C(=O)O)C(=O)O)CC2)CC1.[212Pb+2] (stereo not shown) the tissue uptake was 17.9 ± 2.9 %ID/g (athymic mice, C4-2 prostate cancer xenograft, tumour; intravenous, 2 h, 212Pb-labelled).
O=C([O-])CN1CCN(CC(=O)[O-])CCN(CC(=O)[O-])CCN(CC(=O)[O-])CC1.[64Cu+2] gave a tissue uptake of 0.21 %ID/g (healthy athymic nude mice, blood; intravenous, 1 h).
NC12CNCCNCC(NCc3ccc(CNC(=O)CCCC(=O)NCc4ccc(-c5nncnn5)cc4)cc3)(CNCCNC1)CNCCNC2.[64Cu+2] gave a tissue uptake of 0.23 ± 0.05 %ID/g (athymic nude mice SW1222 xenograft, bone; 12 h post injection, 24 h accumulation interval, added: huA33-TCO pretargeting).
CCCC[C@H](NC(=O)CNC(=O)CNC(=O)CN1CCN(CC(=O)O)CCN(CC(=O)O)CCN(CC(=O)O)CC1)C(=O)N[C@H]1CC(=O)NCCCC[C@@H](C(N)=O)NC(=O)[C@H](Cc2c[nH]c3ccccc23)NC(=O)[C@H](CCCNC(=N)N)NC(=O)[C@@H](Cc2ccccc2)NC(=O)[C@H](Cc2c[nH]cn2)NC1=O [gallium-67 labelled] has a tissue uptake of 0.32 ± 0.19 %ID/g (female C57 mice, B16/F1 melanoma, lung; intravenous, 0.037 MBq, 24 h).
O=C([O-])c1cccc(CN(CCN(Cc2cn(Cc3ccccc3)nn2)Cc2cccc(C(=O)[O-])n2)Cc2cn(Cc3ccccc3)nn2)n1.[64Cu+2] gave a tissue uptake of 5.1 %ID/g (healthy athymic nude mice, lung; intravenous, 15 min).
CN1C(=O)[C@@H](Cc2ccc(O)c(I)c2)NC(=O)CNC(=O)[C@H](Cc2ccc3ccccc3c2)NC(=O)[C@H](CCCNC(=N)N)NC(=O)[C@H]1CCCNC(=O)c1ccc(CNC(=O)CN2CCN(CC(=O)O)CCN(CC(=O)O)CCN(CC(=O)O)CC2)cc1 [lutetium-177 labelled] has a tissue uptake of 12.4 ± 3.7 %ID/g (refers to: 177Lu radioactivity; female CB-17 SCID mice, Daudi xenograft, tumor; intravenous, 0.16 nmol per mouse, 1 h).

Excerpt of the above:
The tissue uptake of CCCC[C@H](NC(=O)CN1CCC(NC(=O)CN2CCN(CC(=O)O)CCN(CC(=O)O)CCN(CC(=O)O)CC2)CC1)C(=O)N[C@H]1CC(=O)NCCCC[C@@H](C(N)=O)NC(=O)[C@H](Cc2c[nH]c3ccccc23)NC(=O)[C@H](CCCNC(=N)N)NC(=O)[C@@H](Cc2ccccc2)NC(=O)[C@H](Cc2c[nH]cn2)NC1=O [gallium-68 labelled] is reported as 0.3 %ID/g (C57BL/6J mice male B16-F10 tumour, spleen; 2 h post injection, unblocked).
For N=C(N)NCCC[C@@H]1NC(=O)[C@H](CCCCNC(=O)CON=C[C@H](F)[C@@H](O)[C@H](O)[C@H](O)CO)NC(=O)[C@@H](Cc2ccc(O)cc2)NC(=O)[C@H](CC(=O)O)NC(=O)CNC1=O [fluorine-18 labelled], the tissue uptake was 1.32 ± 1.3 %ID/g (nude mice U-87 MG tumour, liver; intravenous, 0.5 h).
